Published values collected from several papers.
A part holds a random share of what one study measured. Positions count from the first letter of the parent shown.
Chain of UniProt Q9UKI8 (whole entry, looked up): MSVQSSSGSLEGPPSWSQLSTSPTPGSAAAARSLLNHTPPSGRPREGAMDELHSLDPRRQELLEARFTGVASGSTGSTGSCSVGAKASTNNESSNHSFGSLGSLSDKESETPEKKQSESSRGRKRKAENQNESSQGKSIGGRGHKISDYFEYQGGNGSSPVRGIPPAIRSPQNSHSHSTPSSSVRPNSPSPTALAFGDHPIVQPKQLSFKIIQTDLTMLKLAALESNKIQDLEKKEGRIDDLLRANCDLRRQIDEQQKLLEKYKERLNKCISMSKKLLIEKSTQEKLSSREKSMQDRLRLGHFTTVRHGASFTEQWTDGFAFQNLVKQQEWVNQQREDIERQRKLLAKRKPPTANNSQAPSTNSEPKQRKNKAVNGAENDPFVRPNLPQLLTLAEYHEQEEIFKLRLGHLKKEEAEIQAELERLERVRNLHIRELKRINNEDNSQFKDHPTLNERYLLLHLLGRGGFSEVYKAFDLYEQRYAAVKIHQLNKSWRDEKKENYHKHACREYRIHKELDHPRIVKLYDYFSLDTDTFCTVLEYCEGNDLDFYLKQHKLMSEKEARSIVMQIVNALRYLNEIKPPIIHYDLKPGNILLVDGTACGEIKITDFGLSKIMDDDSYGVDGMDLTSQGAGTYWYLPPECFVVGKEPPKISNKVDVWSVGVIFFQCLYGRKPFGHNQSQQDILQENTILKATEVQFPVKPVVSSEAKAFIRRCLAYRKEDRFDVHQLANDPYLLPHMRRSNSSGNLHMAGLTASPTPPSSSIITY
Chain of UniProt P08922 (whole entry, looked up): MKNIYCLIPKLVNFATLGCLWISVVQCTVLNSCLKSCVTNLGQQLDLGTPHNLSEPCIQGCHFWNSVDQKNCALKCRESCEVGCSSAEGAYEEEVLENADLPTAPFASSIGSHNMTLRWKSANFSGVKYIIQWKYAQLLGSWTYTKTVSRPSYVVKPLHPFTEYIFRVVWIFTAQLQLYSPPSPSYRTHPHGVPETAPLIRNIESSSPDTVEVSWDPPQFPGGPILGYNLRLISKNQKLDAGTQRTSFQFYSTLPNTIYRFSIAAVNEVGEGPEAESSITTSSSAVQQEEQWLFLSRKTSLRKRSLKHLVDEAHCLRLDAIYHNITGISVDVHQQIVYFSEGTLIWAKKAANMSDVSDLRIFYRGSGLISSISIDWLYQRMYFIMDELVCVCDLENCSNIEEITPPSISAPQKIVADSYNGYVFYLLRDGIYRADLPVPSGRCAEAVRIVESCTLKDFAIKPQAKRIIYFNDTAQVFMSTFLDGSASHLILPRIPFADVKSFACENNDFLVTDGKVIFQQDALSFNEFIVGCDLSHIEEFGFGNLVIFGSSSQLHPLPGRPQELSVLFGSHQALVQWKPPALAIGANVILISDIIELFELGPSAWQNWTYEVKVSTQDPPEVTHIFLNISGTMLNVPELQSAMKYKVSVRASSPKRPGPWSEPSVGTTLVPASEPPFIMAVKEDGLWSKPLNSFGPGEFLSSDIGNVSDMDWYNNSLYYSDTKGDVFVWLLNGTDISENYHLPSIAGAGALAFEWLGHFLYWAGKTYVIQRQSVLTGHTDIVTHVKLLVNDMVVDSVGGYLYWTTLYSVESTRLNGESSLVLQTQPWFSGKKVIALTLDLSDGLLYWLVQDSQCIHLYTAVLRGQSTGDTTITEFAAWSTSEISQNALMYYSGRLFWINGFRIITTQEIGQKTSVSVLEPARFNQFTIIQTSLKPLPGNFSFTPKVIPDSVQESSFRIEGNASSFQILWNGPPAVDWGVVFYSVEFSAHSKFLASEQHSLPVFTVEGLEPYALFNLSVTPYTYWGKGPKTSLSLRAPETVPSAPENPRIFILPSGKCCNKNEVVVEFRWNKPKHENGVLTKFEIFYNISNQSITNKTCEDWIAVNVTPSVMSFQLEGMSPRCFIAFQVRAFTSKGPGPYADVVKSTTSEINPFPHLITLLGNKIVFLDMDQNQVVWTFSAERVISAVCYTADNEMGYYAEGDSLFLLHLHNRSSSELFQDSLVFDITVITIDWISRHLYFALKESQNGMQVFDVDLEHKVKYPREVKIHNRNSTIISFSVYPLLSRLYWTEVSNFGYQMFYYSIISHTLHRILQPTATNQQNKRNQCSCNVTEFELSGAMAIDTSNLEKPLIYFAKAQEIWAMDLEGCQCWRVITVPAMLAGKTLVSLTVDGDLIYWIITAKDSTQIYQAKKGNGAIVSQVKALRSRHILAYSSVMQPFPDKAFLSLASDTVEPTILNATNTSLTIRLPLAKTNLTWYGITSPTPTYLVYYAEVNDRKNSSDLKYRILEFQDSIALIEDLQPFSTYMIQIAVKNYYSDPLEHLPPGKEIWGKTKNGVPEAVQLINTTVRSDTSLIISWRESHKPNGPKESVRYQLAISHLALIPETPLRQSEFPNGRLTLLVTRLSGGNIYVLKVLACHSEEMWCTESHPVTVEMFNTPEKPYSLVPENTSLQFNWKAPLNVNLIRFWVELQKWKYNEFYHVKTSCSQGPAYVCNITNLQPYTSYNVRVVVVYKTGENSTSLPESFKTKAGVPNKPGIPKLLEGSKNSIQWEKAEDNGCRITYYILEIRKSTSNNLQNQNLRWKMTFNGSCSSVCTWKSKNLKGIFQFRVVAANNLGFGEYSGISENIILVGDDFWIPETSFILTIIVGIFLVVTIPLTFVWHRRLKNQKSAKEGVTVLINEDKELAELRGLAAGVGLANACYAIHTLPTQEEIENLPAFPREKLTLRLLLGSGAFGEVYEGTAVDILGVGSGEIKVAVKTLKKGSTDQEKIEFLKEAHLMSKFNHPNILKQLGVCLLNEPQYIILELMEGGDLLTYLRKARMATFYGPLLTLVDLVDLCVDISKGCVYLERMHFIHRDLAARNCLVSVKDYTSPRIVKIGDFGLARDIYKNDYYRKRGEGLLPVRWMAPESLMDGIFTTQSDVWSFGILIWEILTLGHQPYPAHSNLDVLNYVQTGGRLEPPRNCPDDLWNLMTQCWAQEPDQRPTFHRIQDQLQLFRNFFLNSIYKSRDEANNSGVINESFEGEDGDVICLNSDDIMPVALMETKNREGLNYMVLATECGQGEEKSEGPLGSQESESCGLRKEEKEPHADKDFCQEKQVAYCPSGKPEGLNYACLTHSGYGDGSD
Chain of UniProt P07949 (whole entry, unmodified, looked up): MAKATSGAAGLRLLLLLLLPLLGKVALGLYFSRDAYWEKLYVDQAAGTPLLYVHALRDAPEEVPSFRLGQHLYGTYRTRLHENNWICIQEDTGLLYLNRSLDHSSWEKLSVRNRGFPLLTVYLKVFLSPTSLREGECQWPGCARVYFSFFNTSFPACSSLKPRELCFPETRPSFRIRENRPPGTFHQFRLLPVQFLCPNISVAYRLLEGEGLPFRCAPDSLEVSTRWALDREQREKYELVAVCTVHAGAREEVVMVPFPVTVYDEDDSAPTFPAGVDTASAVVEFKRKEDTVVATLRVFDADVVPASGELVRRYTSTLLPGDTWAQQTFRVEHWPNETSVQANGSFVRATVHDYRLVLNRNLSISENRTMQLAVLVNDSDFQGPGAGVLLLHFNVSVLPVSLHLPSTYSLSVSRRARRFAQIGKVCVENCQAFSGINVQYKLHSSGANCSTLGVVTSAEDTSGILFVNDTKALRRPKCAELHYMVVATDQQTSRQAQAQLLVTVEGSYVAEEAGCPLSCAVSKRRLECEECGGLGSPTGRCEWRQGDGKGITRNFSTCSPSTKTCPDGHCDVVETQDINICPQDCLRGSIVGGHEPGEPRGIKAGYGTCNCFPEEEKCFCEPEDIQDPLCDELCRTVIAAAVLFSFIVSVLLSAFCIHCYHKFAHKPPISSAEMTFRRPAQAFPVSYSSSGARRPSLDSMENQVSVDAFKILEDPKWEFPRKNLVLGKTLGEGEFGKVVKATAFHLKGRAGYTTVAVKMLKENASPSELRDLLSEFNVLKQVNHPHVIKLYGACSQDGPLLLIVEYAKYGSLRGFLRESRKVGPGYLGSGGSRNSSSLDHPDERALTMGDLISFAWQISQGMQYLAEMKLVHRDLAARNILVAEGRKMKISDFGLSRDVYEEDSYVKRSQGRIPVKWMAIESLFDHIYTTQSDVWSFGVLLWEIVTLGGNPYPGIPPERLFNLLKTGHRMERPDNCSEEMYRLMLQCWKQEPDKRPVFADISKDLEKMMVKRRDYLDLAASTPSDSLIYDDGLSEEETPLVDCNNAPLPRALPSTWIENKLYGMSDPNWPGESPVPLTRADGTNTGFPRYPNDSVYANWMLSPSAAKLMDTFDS
Chain of UniProt Q9Y243 (whole entry, looked up): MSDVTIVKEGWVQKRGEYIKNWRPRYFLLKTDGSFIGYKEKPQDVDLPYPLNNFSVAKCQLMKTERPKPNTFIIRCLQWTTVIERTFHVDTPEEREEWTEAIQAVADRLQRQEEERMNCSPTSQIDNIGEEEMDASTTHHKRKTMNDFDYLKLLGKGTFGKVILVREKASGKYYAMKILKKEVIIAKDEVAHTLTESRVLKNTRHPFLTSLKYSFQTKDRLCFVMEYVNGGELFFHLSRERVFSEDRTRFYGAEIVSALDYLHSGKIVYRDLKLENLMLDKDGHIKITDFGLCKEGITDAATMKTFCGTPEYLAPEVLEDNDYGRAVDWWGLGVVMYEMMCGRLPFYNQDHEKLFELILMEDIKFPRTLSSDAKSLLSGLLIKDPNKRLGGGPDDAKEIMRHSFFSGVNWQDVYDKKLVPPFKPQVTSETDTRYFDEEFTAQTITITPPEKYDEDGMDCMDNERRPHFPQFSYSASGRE
Chain of UniProt P15735 (whole entry, looked up): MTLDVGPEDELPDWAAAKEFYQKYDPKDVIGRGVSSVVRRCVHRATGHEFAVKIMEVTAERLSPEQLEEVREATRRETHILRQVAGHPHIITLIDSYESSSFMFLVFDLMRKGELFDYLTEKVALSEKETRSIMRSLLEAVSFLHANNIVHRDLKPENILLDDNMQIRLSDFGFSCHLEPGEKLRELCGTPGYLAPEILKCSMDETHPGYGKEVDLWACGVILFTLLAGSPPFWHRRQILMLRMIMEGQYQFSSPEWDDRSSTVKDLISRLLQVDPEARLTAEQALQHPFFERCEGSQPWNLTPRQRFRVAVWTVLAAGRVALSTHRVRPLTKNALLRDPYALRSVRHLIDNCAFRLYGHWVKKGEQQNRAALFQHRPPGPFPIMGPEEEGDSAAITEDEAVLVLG

Study 1
Target: Prothrombin, mature alpha-thrombin (F2, Homo sapiens, UniProt P00734)
Technique: aptamer microarray, sandwich
Form: DNA with 2'F-ANA
Matrix: in vitro
Tested at: 200 nM
Setting: whole 15-mer aptamer, many near background
Added: Cy3 exosite-II aptamer, 400 nM
Direction: higher = stronger binding
Strand: GGTTGGTGTGGTTGG
Modification	mean fluorescence intensity
2'F-ANA at 1 3 4 5 7 8 9	69.7 a.u.
2'F-ANA at 1 5 6 10 12 14 15	50.8 a.u.
2'F-ANA at 2 4 5 6 8 10 14	45.5 a.u.
2'F-ANA at 2 8 9 11 12 13 14	219 a.u.
2'F-ANA at 1 2 3 4 5 7 8 9 10 11 12 13 14	54.6 a.u.
2'F-ANA at 2 3 4 5 7 11 13 15	63 a.u.
2'F-ANA at 4 5 7 8 9 10 12 13	78.5 a.u.
2'F-ANA at 1 2 5 6 11 12 14 15	49.3 a.u.

Study 2
Target: ABI1, truncated, D143A, DHFR fusion (Arabidopsis thaliana)
Technique: DHFR PCA, deep sequencing
Matrix: yeast
Setting: methotrexate growth selection, single substitutions
Added: (+)-ABA 0.39 µM
Reference: wild-type fitted maximum
Direction: higher = stronger binding
Starting sequence: PYL1, truncated, DHFR fusion (Arabidopsis thaliana); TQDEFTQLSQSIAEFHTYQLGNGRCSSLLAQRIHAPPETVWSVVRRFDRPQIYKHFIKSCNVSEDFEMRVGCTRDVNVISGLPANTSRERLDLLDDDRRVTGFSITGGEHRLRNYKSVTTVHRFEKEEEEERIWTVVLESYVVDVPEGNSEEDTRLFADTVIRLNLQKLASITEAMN; partner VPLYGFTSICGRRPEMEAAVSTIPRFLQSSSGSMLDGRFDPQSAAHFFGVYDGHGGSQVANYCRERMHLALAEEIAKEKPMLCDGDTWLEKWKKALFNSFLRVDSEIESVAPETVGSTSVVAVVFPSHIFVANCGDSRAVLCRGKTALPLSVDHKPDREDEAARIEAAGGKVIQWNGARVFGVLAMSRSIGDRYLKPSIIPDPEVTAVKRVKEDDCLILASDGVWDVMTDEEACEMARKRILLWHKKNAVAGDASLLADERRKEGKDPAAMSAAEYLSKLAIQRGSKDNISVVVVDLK
Substitution	relative binding score [%]
E129C	43.2
H122C	-5.03
Y141A	-4.22
L166K	0.0786
R69W	-3.91
P37H	2.62
S42R	25.9
E147T	11.9

Study 3
Structure (SMILES): COc1ccc2cc(OCC3(C(=O)O)CN(C(=O)c4ccc(F)cc4)C3)ccc2c1
Effect on: cell-free assay
Technique: competition with immobilised ligand
Tested at: 1 µM
target	remaining binding [%]
Serine/threonine-protein kinase tousled-like 1 (TLK1, Homo sapiens, UniProt Q9UKI8)	87
RAC-gamma serine/threonine-protein kinase (AKT3, Homo sapiens, UniProt Q9Y243)	88
Serine/threonine-protein kinase 25 (STK25, Homo sapiens, UniProt O00506)	100
Phosphorylase b kinase gamma catalytic chain, liver/testis isoform (PHKG2, Homo sapiens, UniProt P15735)	100
High affinity nerve growth factor receptor (NTRK1, Homo sapiens, UniProt P04629)	71
Serine/threonine-protein kinase PAK 3 (PAK3, Homo sapiens, UniProt O75914)	94
Protein kinase C eta type (PRKCH, Homo sapiens, UniProt P24723)	100
Receptor tyrosine-protein kinase erbB-2 (ERBB2, Homo sapiens, UniProt P04626)	100
Serine/threonine-protein kinase mTOR (MTOR, Homo sapiens, UniProt P42345)	100
Proto-oncogene tyrosine-protein kinase ROS (ROS1, Homo sapiens, UniProt P08922)	81
Proto-oncogene tyrosine-protein kinase receptor Ret (RET, Homo sapiens, UniProt P07949, V804L)	78
Phosphatidylinositol 4,5-bisphosphate 3-kinase catalytic subunit alpha isoform (PIK3CA, Homo sapiens, UniProt P42336, C420R)	100
TGF-beta receptor type-2 (TGFBR2, Homo sapiens, UniProt P37173)	100

Further values, each from its own experiment
SMILES	tested on	assay	test system	conditions	quantity	result
CCCCN(CCCC)CC(O)c1cc(Cl)cc2c1-c1ccc(Cl)cc1/C2=C/c1ccc(Cl)cc1 (stereo not drawn)	A-375	–	–	100 µM, 18 h	viability	13.5%
CC(C)C[C@@H]1NC(=O)[C@H](CCC(=O)N2CCCC2)NC(=O)[C@@H](C(C)C)NC(=O)[C@H](C)NC(=O)[C@H](CC(C)C)NC(=O)[C@@H](CC(C)C)NC(=O)[C@H](CC(C)C)NC1=O	–	PRP chromatography estimate	1,9-decadiene/PBS	pH 7.4	logD	-0.737
CCN(CC)c1nc2c(S(=O)(=O)c3ccccc3)nnn2c2ccsc12	–	–	mouse, microsomes or S9	2 µM, 0.5 h	remaining compound	1.78%
O=c1cc(-c2ccccc2)oc2cc(O)c(O)c(O)c12	A-375	–	–	100 µM, 18 h	viability	56.3%

Excerpt of the above (further values, each from its own experiment):
SMILES	tested on	assay	test system	conditions	quantity	result
CCN(CC)c1nc2c(S(=O)(=O)c3ccccc3)nnn2c2ccsc12	–	–	mouse, microsomes or S9	2 µM, 0.5 h	remaining compound	1.78%
CCCCN(CCCC)CC(O)c1cc(Cl)cc2c1-c1ccc(Cl)cc1/C2=C/c1ccc(Cl)cc1 (stereo not drawn)	A-375	–	–	100 µM, 18 h	viability	13.5%
CC(C)C[C@@H]1NC(=O)[C@H](CCC(=O)N2CCCC2)NC(=O)[C@@H](C(C)C)NC(=O)[C@H](C)NC(=O)[C@H](CC(C)C)NC(=O)[C@@H](CC(C)C)NC(=O)[C@H](CC(C)C)NC1=O	–	PRP chromatography estimate	1,9-decadiene/PBS	pH 7.4	logD	-0.737
O=c1cc(-c2ccccc2)oc2cc(O)c(O)c(O)c12	A-375	–	–	100 µM, 18 h	viability	56.3%
